Measured values from different studies.
Protocols differ between the studies behind these lines. “And” joins repeats or separate records; there may be more than shown. ± marks the error that the study gave.
Nuclear receptor subfamily 2 group C member 2 ligand-binding domain: Nuclear receptor subfamily 2 group C member 2, ligand-binding domain (Homo sapiens, UniProt P49116)
Chain of UniProt P51575 (whole entry, unmodified, looked up): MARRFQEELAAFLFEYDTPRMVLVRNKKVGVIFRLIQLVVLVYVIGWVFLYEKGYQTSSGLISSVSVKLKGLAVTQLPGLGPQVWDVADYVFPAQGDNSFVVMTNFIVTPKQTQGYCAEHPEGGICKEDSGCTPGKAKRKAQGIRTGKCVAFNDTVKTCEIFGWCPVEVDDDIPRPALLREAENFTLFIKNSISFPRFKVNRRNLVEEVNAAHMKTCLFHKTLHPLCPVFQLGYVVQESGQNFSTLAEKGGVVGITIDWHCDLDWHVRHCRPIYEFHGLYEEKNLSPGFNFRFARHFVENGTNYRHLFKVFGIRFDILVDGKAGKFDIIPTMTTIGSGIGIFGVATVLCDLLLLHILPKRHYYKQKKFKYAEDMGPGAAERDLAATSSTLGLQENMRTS
Chain of UniProt Q16774 (whole entry, looked up): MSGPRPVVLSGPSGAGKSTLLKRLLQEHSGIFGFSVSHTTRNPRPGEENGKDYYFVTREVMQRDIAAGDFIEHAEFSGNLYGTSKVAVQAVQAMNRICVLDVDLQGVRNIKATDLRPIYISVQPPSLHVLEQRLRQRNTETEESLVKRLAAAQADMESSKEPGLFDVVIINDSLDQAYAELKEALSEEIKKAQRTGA
Chain of UniProt O14980 (whole entry, looked up): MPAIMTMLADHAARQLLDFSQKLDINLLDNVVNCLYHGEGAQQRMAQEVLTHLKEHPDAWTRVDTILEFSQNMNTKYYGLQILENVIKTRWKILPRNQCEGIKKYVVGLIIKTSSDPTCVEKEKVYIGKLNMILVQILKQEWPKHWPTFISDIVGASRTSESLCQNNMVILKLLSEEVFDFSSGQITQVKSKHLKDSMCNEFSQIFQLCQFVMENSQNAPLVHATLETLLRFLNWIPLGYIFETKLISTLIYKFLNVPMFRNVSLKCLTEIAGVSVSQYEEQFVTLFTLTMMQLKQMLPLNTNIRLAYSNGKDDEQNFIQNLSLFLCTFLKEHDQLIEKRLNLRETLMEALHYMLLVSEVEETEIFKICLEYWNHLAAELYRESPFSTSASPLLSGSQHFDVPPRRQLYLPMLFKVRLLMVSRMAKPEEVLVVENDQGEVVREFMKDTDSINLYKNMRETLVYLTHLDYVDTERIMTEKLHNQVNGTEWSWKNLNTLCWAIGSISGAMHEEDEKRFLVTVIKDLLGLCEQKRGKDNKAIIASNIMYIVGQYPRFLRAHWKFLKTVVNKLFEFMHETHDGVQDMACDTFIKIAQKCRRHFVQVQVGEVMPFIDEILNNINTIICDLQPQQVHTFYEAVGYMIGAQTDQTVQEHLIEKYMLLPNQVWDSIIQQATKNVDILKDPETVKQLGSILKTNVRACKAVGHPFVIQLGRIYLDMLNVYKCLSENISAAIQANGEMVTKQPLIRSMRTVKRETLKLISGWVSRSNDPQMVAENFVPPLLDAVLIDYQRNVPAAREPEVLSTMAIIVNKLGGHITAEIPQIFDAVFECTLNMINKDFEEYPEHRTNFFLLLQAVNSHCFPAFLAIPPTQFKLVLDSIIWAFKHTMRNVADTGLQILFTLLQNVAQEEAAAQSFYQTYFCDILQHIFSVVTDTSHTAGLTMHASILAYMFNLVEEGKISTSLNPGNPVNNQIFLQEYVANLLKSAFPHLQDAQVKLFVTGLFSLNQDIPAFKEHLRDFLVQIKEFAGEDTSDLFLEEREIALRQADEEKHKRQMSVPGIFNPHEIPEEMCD
Chain of UniProt P49116 (whole entry, looked up): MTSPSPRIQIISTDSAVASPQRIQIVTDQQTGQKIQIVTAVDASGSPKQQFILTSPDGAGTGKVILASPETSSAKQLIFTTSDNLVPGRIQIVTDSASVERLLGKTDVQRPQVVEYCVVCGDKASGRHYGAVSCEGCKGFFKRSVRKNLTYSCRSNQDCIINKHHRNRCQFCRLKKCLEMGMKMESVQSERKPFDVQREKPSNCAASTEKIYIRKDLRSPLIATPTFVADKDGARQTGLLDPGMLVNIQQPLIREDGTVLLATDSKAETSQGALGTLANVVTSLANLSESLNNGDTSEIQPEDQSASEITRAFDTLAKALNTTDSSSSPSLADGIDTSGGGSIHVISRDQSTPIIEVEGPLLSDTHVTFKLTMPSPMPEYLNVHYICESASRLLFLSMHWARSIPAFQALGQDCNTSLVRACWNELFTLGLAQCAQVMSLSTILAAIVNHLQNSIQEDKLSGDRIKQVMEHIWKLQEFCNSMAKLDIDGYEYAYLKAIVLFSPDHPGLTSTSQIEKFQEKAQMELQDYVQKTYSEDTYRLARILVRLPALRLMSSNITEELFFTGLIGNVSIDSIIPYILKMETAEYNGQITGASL
Chain of UniProt P21918 (whole entry, looked up): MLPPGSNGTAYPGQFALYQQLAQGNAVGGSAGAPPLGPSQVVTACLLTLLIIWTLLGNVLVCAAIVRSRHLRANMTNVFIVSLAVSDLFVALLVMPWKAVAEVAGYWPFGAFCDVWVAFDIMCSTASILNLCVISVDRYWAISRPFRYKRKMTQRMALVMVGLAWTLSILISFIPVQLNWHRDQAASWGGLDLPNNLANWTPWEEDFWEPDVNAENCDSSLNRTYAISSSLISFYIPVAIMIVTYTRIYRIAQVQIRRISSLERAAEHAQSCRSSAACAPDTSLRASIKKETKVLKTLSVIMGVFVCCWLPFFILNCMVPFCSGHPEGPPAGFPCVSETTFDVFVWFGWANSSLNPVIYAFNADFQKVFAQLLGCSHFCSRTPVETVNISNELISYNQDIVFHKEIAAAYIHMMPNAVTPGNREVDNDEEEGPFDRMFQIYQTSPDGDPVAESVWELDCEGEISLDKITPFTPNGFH
Chain of UniProt Q9Y4B6 (whole entry, looked up): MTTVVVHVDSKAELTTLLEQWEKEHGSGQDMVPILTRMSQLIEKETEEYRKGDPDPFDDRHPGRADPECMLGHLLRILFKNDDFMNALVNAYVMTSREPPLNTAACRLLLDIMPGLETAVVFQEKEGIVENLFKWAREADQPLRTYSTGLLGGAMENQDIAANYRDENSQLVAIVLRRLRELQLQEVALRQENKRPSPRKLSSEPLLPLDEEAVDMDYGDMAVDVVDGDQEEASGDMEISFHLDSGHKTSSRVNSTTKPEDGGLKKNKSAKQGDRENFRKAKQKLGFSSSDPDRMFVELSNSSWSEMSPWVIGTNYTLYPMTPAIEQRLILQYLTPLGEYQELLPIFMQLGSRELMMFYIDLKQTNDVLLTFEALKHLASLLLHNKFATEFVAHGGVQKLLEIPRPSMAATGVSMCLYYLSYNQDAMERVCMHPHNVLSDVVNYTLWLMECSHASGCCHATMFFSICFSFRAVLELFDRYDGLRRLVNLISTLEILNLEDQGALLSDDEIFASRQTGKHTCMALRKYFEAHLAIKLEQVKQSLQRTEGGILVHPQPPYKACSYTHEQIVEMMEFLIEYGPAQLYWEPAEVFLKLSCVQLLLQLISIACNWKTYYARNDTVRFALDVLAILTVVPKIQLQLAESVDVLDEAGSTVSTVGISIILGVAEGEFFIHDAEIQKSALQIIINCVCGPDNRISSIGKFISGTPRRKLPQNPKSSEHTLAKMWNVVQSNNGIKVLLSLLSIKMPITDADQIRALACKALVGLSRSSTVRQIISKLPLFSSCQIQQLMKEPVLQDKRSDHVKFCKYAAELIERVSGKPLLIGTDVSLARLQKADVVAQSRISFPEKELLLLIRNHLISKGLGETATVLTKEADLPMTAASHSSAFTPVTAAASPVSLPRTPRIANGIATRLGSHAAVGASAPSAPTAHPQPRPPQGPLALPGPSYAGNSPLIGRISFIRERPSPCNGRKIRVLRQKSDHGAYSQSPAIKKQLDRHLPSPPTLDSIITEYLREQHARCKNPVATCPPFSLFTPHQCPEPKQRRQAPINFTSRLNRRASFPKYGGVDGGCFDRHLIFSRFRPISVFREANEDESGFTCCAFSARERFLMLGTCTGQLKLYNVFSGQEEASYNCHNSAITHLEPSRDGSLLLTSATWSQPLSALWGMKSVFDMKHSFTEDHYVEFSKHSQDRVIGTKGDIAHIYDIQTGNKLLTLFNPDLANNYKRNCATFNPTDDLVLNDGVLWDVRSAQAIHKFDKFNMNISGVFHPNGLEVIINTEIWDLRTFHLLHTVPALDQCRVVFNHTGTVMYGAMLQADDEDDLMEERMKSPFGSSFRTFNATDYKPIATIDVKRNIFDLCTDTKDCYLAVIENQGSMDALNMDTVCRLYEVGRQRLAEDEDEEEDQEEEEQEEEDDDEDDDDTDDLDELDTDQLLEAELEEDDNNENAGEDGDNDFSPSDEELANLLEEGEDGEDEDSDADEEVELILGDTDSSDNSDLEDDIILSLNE
Chain of UniProt Q13555 (whole entry, looked up): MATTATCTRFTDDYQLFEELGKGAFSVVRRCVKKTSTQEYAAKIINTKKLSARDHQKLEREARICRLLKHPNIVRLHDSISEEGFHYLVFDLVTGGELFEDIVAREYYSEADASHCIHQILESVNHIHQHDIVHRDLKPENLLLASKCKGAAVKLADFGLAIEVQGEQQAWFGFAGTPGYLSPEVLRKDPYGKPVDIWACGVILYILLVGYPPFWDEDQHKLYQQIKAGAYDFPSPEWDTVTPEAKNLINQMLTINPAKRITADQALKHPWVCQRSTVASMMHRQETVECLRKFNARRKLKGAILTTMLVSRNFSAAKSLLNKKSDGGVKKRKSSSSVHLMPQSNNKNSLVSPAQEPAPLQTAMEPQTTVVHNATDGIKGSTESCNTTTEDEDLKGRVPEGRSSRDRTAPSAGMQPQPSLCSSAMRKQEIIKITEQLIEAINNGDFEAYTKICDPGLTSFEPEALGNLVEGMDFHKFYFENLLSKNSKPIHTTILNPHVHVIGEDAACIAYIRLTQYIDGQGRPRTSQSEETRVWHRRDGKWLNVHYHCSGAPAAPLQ
Chain of UniProt P61981 (whole entry, looked up): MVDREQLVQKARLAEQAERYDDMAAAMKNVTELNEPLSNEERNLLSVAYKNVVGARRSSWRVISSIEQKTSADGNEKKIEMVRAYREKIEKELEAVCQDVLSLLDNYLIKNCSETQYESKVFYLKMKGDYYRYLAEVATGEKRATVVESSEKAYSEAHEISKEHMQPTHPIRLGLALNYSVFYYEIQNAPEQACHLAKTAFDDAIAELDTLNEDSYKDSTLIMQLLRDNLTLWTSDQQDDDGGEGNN

O=Cc1ccc(C(=O)N2CCOCC2)cc1  EC50 (YWHAG/RELA, phospho-Ser45 p65 peptide (Homo sapiens, UniProt P61981+Q04206); ternary complex formation, stabilizer, fluorescence anisotropy): > 1000 µM
CC[C@@H]1[C@H](F)C(=O)N[C@@H]1COc1nccc2cc(C(N)=O)c(OC)cc12  inhibition (Calcium/calmodulin-dependent protein kinase type II subunit gamma (CAMK2G, Homo sapiens, UniProt Q13555); ATP-site probe binding, ActivX profiling; THP-1 cell lysate; 0.2 mM, Lys1 site): 10%
Nc1nc(O)c2ncn(COC(CO)CO)c2n1  koff (Nuclear receptor subfamily 2 group C member 2 ligand-binding domain; SPR imaging; 600 nM): 1.23e-05 s⁻¹
O=C1c2ccccc2CCN1CCCCN1CCN(c2cccc(Cl)c2Cl)CC1  inhibition (D(1B) dopamine receptor (DRD5, Homo sapiens, UniProt P21918); radioligand binding; concentration not given, together with: [3H]SCH23390): 76.6%
CCCCCCCCCCCCCCCC(=O)SCCNC(=O)CCNC(=O)C(O)C(C)(C)COP(=O)(O)OP(=O)(O)OCC1OC(n2cnc3c(N)ncnc32)C(O)C1OP(=O)(O)O (centres unmarked)  concentration in oligomer fraction (Mitochondrial dynamics protein MID49 (Mief2, Mus musculus, UniProt Q5NCS9); reversed-phase HPLC; mouse protein, 5.3 µM in oligomer fraction): 5.5 µM
O=C(COP(=O)(O)O)[C@@H](O)[C@H](O)[C@H](O)COP(=O)(O)O  thermal stability ratio (Large ribosomal subunit protein uL30 (Homo sapiens, UniProt P18124); thermal proteome profiling, refers to: RPL7; HepG2 cell lysate; concentration not given, 57 over 37 °C; relative to: compound over control): 0.867 and 0.708 and 0.5
Cc1nc2c(Cl)cccn2c1NC(=O)c1ccc(-c2ccc(N(C)C)cc2)o1  apoptotic cells (COS-7; 10 µM, 24 h, 0.1% DMSO, unit not given; relative to: vehicle control): 1.29 ± 0.28
O=C(O)c1ccc(O)c2ncccc12  viability (OCI-Ly1; 0.5 µM, 120 h): 151%
Nc1ncnc2c1ncn2[C@@H]1O[C@H](COP(=O)(O)CP(=O)(O)OP(=O)(O)O)[C@@H](O)[C@H]1O  calcium influx (P2X purinoceptor 1 (P2RX1, Homo sapiens, UniProt P51575, S286A); calcium influx; 1 µM; relative to: ionomycin response): 83.5% and 99.8% and 100%
[H]/N=C(/N)NCC(=O)O  normalised MST signal (Sodium- and chloride-dependent taurine transporter (SLC6A6, Homo sapiens, UniProt P31641, L306A); binding, microscale thermophoresis; 15.6 µM, room temperature, together with: 50 nM labelled protein; higher = more binding): 0.0217
Cc1cccc(N2CC(C(=O)O)CC2=O)c1 (centres unmarked)  fold enrichment (DDB1- and CUL4-associated factor 1 (DCAF1, Homo sapiens, UniProt Q9Y4B6); binding, affinity selection mass spectrometry; relative to: other proteins in batch): 0.896
N#Cc1ccc2[nH]cc(CCCCN3CCN(c4ccc5oc(C(N)=O)cc5c4)CC3)c2c1  Hill coefficient (Sodium-dependent serotonin transporter (SLC6A4, Homo sapiens, UniProt P31645, Y579A); [3H]5-HT uptake, inhibitor; COS-7): 1.88 ± 0.31
O=P(O)(O)OC[C@H](O)CO  Km (glycerol-3-phosphate acyltransferase, mouse; substrate; mouse testis total membranes; pH 7.5, room temperature, together with: palmitoyl-CoA): 578 ± 34 µM
CCS(=O)(=O)c1nc(C2CC2)cc(C(F)(F)F)n1  cells with nuclear reporter (Exportin-1 (XPO1, Homo sapiens, UniProt O14980); nuclear export, high content imaging; HeLa Kyoto reporter; 5 µM, 2 h): 3.67% and 3.84% and 4.94%
CC(C)C[C@@H]1NC(=O)[C@H](C(C)C)NC(=O)CNC(=O)[C@H](CC(N)=O)NC(=O)[C@@H]2CCCN2C(=O)[C@H](Cc2ccc(O)cc2)NC(=O)[C@H](CCCNC(=N)N)NC(=O)[C@H](C)NC(=O)[C@@H](NC(=O)[C@H](CCCCN)NC(=O)[C@@H]2CCCN2C(=O)[C@H](CO)NC(=O)[C@H](C)NC(=O)[C@@H](N)Cc2ccc(O)cc2)CSSC[C@@H](C(=O)N[C@H](C(N)=O)[C@@H](C)O)NC(=O)[C@H](C)NC1=O  -TΔS (Alpha-2-HS-glycoprotein, asialo (AHSG, Bos taurus, UniProt P12763); binding, isothermal titration calorimetry; pH 7.0, 25 °C, together with: asialofetuin): 1.12 kcal/mol
COc1cc2c(NC3CCN(C(C)C)CC3)nc(C3CCCCC3)nc2cc1OCCCN1CCCC1  viability (OCI-Ly1; 1 µM, 120 h): 177%
O=C1[C@H](CC[C@H](O)c2ccc(F)cc2)[C@@H](c2ccc(O)cc2)N1c1ccc(F)cc1  koff (Nuclear receptor subfamily 2 group C member 2 ligand-binding domain; SPR imaging; 600 nM): 2.43e-05 s⁻¹
Nc1nc2c(ncn2[C@@H]2O[C@H](COP(=O)(O)O)[C@@H](O)[C@H]2O)c(=O)[nH]1  reaction rate (GUK1 (Homo sapiens, UniProt Q16774); enzyme activity, NADH-coupled; 31.25 µM): 41.1 s⁻¹ and 33.6 s⁻¹ and 39.4 s⁻¹
CCCCCCCCC(=O)c1cc(O)c(O)c(O)c1  apoptotic cells (COS-7; 10 µM, 24 h, 0.1% DMSO, unit not given; relative to: vehicle control): 1.14 ± 0.03
N[C@H](COP(=O)(O)O)Cc1c[nH]cn1  Km (Beta2; substrate, coupled phosphate release): 340 ± 63 µM

Excerpt of the above:
CC(C)C[C@@H]1NC(=O)[C@H](C(C)C)NC(=O)CNC(=O)[C@H](CC(N)=O)NC(=O)[C@@H]2CCCN2C(=O)[C@H](Cc2ccc(O)cc2)NC(=O)[C@H](CCCNC(=N)N)NC(=O)[C@H](C)NC(=O)[C@@H](NC(=O)[C@H](CCCCN)NC(=O)[C@@H]2CCCN2C(=O)[C@H](CO)NC(=O)[C@H](C)NC(=O)[C@@H](N)Cc2ccc(O)cc2)CSSC[C@@H](C(=O)N[C@H](C(N)=O)[C@@H](C)O)NC(=O)[C@H](C)NC1=O  -TΔS (Alpha-2-HS-glycoprotein, asialo (AHSG, Bos taurus, UniProt P12763); binding, isothermal titration calorimetry; pH 7.0, 25 °C, together with: asialofetuin): 1.12 kcal/mol
COc1cc2c(NC3CCN(C(C)C)CC3)nc(C3CCCCC3)nc2cc1OCCCN1CCCC1  viability (OCI-Ly1; 1 µM, 120 h): 177%
